Measured values from different studies.
Several values in a cell are separate wells, animals, samples, runs or records. ± gives the spread as reported.
UniProt Q96S37, sequence (whole entry, looked up): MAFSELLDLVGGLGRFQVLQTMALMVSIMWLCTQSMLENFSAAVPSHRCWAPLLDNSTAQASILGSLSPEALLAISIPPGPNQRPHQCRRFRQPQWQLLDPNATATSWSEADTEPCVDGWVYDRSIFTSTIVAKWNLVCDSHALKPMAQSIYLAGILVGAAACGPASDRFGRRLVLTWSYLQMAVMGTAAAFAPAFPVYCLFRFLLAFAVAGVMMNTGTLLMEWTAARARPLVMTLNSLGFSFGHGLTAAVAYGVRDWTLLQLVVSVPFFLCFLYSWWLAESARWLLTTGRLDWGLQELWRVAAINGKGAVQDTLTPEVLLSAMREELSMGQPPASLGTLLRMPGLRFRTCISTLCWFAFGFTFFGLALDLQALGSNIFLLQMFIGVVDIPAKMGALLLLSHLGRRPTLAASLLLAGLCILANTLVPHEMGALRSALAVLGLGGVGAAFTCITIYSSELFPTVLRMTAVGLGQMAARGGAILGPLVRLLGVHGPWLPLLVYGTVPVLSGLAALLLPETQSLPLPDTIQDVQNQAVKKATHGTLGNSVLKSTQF
UniProt Q64663, sequence (whole entry, unmodified, looked up): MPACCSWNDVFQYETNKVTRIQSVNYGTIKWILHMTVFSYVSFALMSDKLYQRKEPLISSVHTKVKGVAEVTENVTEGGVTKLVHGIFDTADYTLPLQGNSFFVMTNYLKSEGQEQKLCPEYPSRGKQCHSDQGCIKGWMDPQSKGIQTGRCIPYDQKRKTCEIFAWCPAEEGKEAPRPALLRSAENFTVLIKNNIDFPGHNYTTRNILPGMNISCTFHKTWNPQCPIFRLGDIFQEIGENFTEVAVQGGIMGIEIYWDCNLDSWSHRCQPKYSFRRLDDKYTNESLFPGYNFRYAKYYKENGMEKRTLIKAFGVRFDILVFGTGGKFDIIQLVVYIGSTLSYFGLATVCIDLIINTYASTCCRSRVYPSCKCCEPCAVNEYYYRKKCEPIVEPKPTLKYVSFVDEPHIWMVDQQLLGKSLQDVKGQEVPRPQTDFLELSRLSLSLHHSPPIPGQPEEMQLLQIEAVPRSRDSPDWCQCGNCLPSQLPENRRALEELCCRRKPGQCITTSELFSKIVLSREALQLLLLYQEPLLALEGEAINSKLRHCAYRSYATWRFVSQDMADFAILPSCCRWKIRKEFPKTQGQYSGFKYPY
UniProt P51575, sequence (whole entry, looked up): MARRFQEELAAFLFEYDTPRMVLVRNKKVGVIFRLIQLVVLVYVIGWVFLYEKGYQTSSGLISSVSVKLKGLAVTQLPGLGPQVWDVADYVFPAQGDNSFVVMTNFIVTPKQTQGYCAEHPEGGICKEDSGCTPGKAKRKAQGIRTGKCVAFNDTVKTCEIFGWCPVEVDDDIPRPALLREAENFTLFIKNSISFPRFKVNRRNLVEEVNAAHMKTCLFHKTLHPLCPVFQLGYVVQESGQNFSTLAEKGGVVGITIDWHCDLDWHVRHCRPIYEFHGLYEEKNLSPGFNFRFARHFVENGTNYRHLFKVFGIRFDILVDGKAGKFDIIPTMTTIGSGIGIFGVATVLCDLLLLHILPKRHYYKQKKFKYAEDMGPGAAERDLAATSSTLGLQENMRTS
UniProt P22736, sequence (whole entry, looked up): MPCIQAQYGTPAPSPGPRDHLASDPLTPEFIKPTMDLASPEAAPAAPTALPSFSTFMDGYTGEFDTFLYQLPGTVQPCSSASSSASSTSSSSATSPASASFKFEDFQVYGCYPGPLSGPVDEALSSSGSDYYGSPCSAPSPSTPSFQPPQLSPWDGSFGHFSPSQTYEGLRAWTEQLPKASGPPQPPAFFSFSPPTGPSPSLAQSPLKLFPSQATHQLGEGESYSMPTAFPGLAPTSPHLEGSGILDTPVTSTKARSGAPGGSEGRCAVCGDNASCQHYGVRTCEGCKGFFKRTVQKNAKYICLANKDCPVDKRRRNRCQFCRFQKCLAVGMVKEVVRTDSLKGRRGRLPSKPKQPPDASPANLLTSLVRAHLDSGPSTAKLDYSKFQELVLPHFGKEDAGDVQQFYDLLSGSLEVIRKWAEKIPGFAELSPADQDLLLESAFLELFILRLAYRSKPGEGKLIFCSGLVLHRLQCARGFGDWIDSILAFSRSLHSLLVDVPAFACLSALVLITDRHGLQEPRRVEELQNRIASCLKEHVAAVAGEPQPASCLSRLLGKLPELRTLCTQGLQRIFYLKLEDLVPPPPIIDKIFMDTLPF
UniProt P47898, sequence (whole entry, looked up): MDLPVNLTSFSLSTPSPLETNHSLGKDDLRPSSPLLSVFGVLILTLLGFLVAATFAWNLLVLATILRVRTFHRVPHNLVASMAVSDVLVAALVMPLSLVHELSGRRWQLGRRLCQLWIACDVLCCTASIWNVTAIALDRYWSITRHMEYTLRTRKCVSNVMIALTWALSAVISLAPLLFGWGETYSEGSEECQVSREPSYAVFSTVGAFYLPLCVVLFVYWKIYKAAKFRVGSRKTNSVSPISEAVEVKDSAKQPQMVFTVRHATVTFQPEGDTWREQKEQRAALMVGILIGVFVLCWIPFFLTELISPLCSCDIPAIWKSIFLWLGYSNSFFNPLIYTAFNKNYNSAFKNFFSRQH
UniProt Q16774, sequence (whole entry, unmodified, looked up): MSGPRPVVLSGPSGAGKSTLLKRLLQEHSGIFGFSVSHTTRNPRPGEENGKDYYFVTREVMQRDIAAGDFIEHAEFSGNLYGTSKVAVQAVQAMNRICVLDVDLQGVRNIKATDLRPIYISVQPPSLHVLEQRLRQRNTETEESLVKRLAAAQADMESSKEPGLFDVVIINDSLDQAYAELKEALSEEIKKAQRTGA
UniProt P11310, sequence (whole entry, looked up): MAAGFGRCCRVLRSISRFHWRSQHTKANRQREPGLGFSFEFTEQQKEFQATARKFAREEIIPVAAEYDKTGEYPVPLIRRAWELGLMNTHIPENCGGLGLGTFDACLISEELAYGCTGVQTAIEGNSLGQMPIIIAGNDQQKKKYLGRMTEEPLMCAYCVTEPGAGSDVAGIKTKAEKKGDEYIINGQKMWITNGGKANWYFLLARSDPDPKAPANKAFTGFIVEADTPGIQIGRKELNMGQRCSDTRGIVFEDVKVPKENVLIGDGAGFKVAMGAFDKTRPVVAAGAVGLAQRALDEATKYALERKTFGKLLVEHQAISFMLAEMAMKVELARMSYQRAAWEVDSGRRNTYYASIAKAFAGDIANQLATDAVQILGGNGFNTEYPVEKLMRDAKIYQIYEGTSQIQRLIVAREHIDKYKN
UniProt P19438, sequence (whole entry, looked up): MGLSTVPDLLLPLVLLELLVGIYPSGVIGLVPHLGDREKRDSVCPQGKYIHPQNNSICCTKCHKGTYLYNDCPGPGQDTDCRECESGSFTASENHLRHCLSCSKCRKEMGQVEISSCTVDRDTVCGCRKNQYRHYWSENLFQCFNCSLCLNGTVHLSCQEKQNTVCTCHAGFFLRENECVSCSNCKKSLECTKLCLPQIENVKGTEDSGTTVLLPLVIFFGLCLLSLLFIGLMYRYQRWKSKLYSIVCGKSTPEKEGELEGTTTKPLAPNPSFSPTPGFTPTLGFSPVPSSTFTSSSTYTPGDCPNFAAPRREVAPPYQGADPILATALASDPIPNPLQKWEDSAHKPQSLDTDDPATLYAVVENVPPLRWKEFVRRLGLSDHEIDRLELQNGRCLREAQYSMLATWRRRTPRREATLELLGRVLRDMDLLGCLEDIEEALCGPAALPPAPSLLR
UniProt O60603, sequence (whole entry, looked up): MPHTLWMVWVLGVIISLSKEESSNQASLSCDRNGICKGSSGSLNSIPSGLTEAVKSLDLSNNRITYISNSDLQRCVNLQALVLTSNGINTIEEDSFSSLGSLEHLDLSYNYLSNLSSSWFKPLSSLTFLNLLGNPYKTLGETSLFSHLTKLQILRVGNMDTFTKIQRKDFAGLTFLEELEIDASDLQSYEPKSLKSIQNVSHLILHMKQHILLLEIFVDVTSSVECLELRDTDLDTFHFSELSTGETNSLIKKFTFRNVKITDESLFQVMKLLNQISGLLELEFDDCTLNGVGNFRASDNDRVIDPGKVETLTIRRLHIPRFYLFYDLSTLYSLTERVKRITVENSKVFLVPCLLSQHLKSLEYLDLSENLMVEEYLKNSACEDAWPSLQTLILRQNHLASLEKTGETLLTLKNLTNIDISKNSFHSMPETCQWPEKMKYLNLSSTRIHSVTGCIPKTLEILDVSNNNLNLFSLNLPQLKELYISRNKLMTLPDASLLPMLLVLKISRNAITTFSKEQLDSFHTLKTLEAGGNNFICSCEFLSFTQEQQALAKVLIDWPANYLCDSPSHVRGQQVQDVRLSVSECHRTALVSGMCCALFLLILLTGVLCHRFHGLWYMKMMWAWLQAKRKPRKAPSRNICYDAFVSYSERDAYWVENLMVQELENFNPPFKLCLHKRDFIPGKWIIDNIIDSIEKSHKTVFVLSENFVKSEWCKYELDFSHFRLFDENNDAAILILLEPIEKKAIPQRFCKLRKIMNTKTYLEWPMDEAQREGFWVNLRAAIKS
UniProt P48729, sequence (whole entry, looked up): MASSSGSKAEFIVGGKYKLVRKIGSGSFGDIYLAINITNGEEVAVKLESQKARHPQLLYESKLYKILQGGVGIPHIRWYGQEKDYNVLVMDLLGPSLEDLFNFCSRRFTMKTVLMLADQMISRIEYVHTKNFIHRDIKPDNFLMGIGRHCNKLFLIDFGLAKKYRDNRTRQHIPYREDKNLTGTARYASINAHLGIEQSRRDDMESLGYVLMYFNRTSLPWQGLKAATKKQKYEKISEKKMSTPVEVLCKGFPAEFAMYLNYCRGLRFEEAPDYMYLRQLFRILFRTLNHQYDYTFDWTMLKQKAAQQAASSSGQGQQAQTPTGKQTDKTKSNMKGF
UniProt Q07011, sequence (whole entry, looked up): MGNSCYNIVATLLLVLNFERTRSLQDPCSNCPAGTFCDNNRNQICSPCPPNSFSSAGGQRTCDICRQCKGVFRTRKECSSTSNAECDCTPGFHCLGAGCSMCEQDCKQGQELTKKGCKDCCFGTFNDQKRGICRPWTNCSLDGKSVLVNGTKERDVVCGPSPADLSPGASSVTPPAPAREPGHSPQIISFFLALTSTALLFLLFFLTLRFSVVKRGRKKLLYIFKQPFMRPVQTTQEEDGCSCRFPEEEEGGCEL

Compound | target | assay | test system | conditions | how to read | endpoint | result
Cc1ccccc1C(=O)Nc1ccc2c(c1)CN(C1CCC(=O)NC1=O)C2=O (stereo not shown) | Cereblon/Casein kinase I alpha (CSNK1A1/CRBN, Homo sapiens, UniProt P48729+Q96SW2) | degrader, live-cell HiBiT kinetics | HEK293 LgBiT | 10 µM |  | degradation rate constant | < 1 h⁻¹
Nc1ncnc2c1ncn2[C@@H]1O[C@H](COP(=O)(O)CP(=O)(O)OP(=O)(O)O)[C@@H](O)[C@H]1O | P2X purinoceptor 1 (P2RX1, Homo sapiens, UniProt P51575) | calcium influx |  | 31.6 nM | reference: ionomycin response | calcium influx | 4.58% and 5.67% and 0.61% and 6.73%
c1ccc(-c2n[nH]cc2-c2ccnc3ccccc23)nc1 | Mitogen-activated protein kinase HOG1 (HOG1, Candida albicans, UniProt Q92207) | MIB/MS competition binding | Candida albicans cell lysate | 1 µM | reference: DMSO, lower = stronger binding | log2 fold change | 1.48
COc1cccc2c(Nc3ccc4[nH]c(C(=O)N/N=C/c5ccc(SC)cc5)cc4c3)cc(C)nc12 | Nuclear receptor subfamily 4 group A member 1 (NR4A1, Homo sapiens, UniProt P22736) | reporter gene, Gal4 hybrid reporter |  | 3 µM | reference: vehicle | activation | 0.7 fold
CC(=O)Oc1ccc2c(=O)c(Oc3ccc(Cl)cc3)c(C(F)(F)F)oc2c1 | Sodium channel protein type 8 subunit alpha, C-terminal domain (SCN8A, Homo sapiens, UniProt Q9UQD0) | binder, thermal shift |  | 25 µM |  | delta Tm | 0.1 °C
[H]/N=C(/N)NCC(=O)O | Sodium- and chloride-dependent taurine transporter (SLC6A6, Homo sapiens, UniProt P31641, G62A) | binding, microscale thermophoresis |  | 62.5 µM, room temperature, added: 50 nM labelled protein | higher = more binding | normalised MST signal | -0.00654
CC(=O)N[C@@H]1[C@@H](O[C@H]2O[C@H](CO)[C@H](O)[C@H](O)[C@H]2O)[C@@H](O)[C@@H](CO)O[C@@H]1O | Frizzled-8 (Xenopus laevis, UniProt Q91719) | binding, biolayer interferometry |  | 25 °C, added: immobilized biotinylated carbohydrate |  | dissociation rate constant | 0.000527 s⁻¹
O=C(O)c1ccc(-c2ccc3[nH]ccc3c2)cn1 | Tumor necrosis factor receptor superfamily member 1A, extracellular domain (Homo sapiens, UniProt P19438) | binding, SPR |  |  |  | ligand efficiency | 0.26
O=C1NC(=O)/C(=C/c2ccc(OCCNc3nc4c(cnn4C4CCCC4)c(=O)[nH]3)c(F)c2)S1 | High affinity 3',5'-cyclic-AMP phosphodiesterase 7A (PDE7A, Homo sapiens, UniProt Q13946) |  |  |  | reference: PDE7A over PDE9 | selectivity ratio | 25 fold
CCOc1ccc(N(C)S(=O)(=O)c2cc(Cl)sc2C(=O)Nc2cc(Cl)cc(C(=O)O)c2)cc1OC | Peroxisome proliferator-activated receptor delta (PPARD, Homo sapiens, UniProt Q03181) |  |  | concentration not given |  | activity | inactive
CCCCCCCCOC(=O)NS(=O)(=O)Nc1ccc(-c2cc3ccccc3[nH]2)cc1OC | Polyunsaturated fatty acid lipoxygenase ALOX15 (Oryctolagus cuniculus, UniProt P12530) |  |  | 30 µM, added: arachidonic acid |  | kcat | 1.25 ± 0.21 s⁻¹
CC[C@@H]1[C@H](F)C(=O)N[C@@H]1COc1nccc2cc(C(N)=O)c(OC)cc12 | 3-phosphoinositide-dependent protein kinase 1 (PDPK1, Homo sapiens, UniProt O15530) | ATP-site probe binding, ActivX profiling, refers to: PDK1 | THP-1 cell lysate | 0.04 mM, Lys1 site |  | inhibition | 12.1%
CCCC[C@@H]1NC(=O)[C@H](Cc2ccc(O)cc2)NC(=O)[C@@H]2CCCN2C(=O)[C@H](CC(=O)O)NC(=O)[C@H](C)NC(=O)[C@H](Cc2ccccc2)NC(=O)[C@@H]2CSCCC(=O)N3CN(CN(C3)C(=O)CCSC[C@@H](C(=O)N[C@@H](C)C(N)=O)NC1=O)C(=O)CCSC[C@H](NC(C)=O)C(=O)N[C@@H](CC(C)(C)C)C(=O)N1CCC[C@H]1C(=O)N[C@@H](CCC(=O)O)C(=O)N[C@H](CCCCNC(=O)CCc1cn(CCOCCOCCOCCOCCOCCOCCOCCOCCOCCOCCNC(=O)CCOCCN(CCOCCC(=O)NCCOCCOCCOCCOCCOCCOCCOCCOCCOCCOCCn3cc(CCC(=O)NCCCC[C@H]4NC(=O)[C@H](CCC(=O)O)NC(=O)[C@@H]5CCCN5C(=O)[C@H](CC(C)(C)C)NC(=O)[C@@H](NC(C)=O)CSCCC(=O)N5CN6CN(C5)C(=O)CCSC[C@H](NC(=O)[C@H](Cc5ccc(O)cc5)NC(=O)[C@@H]5CCCN5C4=O)C(=O)N[C@@H](Cc4ccccc4)C(=O)N[C@@H](C)C(=O)N[C@@H](CC(=O)O)C(=O)N4CCC[C@H]4C(=O)N[C@@H](Cc4ccc(O)cc4)C(=O)N[C@@H](CCCC)C(=O)N[C@H](C(=O)N[C@@H](C)C(N)=O)CSCCC6=O)nn3)CCOCCC(=O)NCCOCCOCCOCCOCCOCCOCCOCCOCCOCCOCCn3cc(CCC(=O)N[C@H]4CSCCC(=O)N5CN6CN(C5)C(=O)CCSC[C@H](NC(=O)[C@@H](CC(=O)O)NC(=O)[C@H](Cc5cccc7ccccc57)NC(=O)[C@@H]5CCCN5C4=O)C(=O)N[C@@H](CCSC)C(=O)N[C@@H](CCCCNC(=N)N)C(=O)N[C@@H](CC(=O)O)C(=O)N[C@@H](Cc4c[nH]c5ccccc45)C(=O)N[C@@H](CO)C(=O)N[C@@H]([C@@H](C)O)C(=O)N4CCC[C@H]4C(=O)N4C[C@H](O)C[C@H]4C(=O)N[C@@H](Cc4c[nH]c5ccccc45)C(=O)N[C@H](C(N)=O)CSCCC6=O)nn3)nn1)C(=O)N1CCC[C@H]1C(=O)N[C@@H](Cc1ccc(O)cc1)C(=O)N2 | Tumor necrosis factor receptor superfamily member 9/Nectin-4 (Homo sapiens, UniProt Q07011+Q96NY8) | reporter gene, agonist | HT-1376 coculture with reporter cells |  | reference: background | Emax | 40 fold
O=c1nc(SCc2cc(F)cc(C(F)(F)F)c2)nc(SCc2ccc3nc(OCCN4CCOCC4)ccc3c2)[nH]1 | DNA topoisomerase 2-alpha (TOP2A, Homo sapiens, UniProt P11388) | decatenation |  | 31.25 µM, replicate 1 |  | decatenated DNA | 1.6%
CC(=O)N[C@H](C(=O)N1C[C@H](O)C[C@H]1C(=O)NCc1ccc(-c2scnc2C)cc1)C(C)(C)SCCCCCCNC(=O)C[C@@H]1N=C(c2ccc(Cl)cc2)c2c(sc(C)c2C)-n2c(C)nnc21 | Bromodomain-containing protein 2, BD2 (BRD2, Homo sapiens, UniProt P25440) | ITC |  | concentration not given, 25 °C, compound in cell, protein in syringe |  | binding stoichiometry | 0.81 ± 0.03
Nc1nc2c(ncn2[C@@H]2O[C@H](COP(=O)(O)OP(=O)(O)OP(=O)(O)O)[C@@H](O)[C@H]2O)c(=O)[nH]1 | DNA-directed RNA polymerase subunit beta' / DNA-directed RNA polymerase subunit beta (rpoC/rpoB, Escherichia coli, UniProt P0A8T7+P0A8V2) | RNA extension, rapid quench-flow | Escherichia coli, elongation complex, 6-MI template | 200 µM, 25 °C, fast complex fraction |  | nucleotide addition rate | 34 ± 2 s⁻¹
CC(=O)Nc1ccc(O)cc1 | Bromodomain-containing protein 4 (BRD4, Homo sapiens, UniProt O60885) | 19F NMR, refers to: tyrosine 97 |  | 95 µM | reference: free protein | chemical shift change | -0.275 ppm
COc1cc(/C=C/c2ccc(O)cc2)cc(OC)c1 | O-methyltransferase (Sorghum bicolor, UniProt A0A1B6PFV1) | isothermal titration calorimetry |  | concentration not given, apo protein |  | binding stoichiometry | 0.86 ± 0.018 sites
Nc1ncnc2c1ncn2[C@@H]1O[C@H](CO[P@](=O)(O)O[P@](=O)(O)O[P@@](=O)(O)S)[C@@H](O)[C@H]1O | GUK1 (Homo sapiens, UniProt Q16774) | binding, isothermal titration calorimetry |  | molar ratio 0.6998, fitted curve |  | ΔH | -1.32 kcal/mol
CCc1oc2ccccc2c1C(=O)c1cc(Br)c(O)c(Br)c1 | Solute carrier family 22 member 12 (SLC22A12, Homo sapiens, UniProt Q96S37) | urate uptake | HEK-293T | 0.5 µM, 10 min, 37 °C, added: [14C]urate 200 µM |  | inhibition | 68.5% and 73% and 69.3% and 62.9% and 68%
CCCCCCCC(=O)SCCNC(=O)CCNC(=O)[C@H](O)C(C)(C)COP(=O)(O)OP(=O)(O)OC[C@H]1O[C@@H](n2cnc3c(N)ncnc32)[C@H](O)[C@@H]1OP(=O)(O)O | Medium-chain specific acyl-CoA dehydrogenase, mitochondrial (ACADM, Homo sapiens, UniProt P11310) | charge-transfer complex formation, anaerobic spectrophotometric titration |  |  |  | apparent Kd | 120 nM
Nc1ncnc2c1ncn2[C@@H]1O[C@H](COP(=O)(O)OP(=O)(O)OP(=O)(O)O)[C@@H](O)[C@H]1O | P2X purinoceptor 7 (P2rx7, Rattus norvegicus, UniProt Q64663, R125A) | ion current, agonist, two-electrode voltage clamp | Xenopus laevis oocytes | 55.56 µM | reference: highest concentration response | normalized current | 0.59 and 0.651 and 0.667
C[C@H]1O[C@@H](O[C@H]2CC[C@@]3(C)[C@@H](CC[C@]4(C)[C@@H]3C=C[C@]35OC[C@@]6(CCC(C)(C)C[C@H]63)[C@@H](O)C[C@]54C)[C@]2(C)CO)[C@H](O)[C@@H](O[C@@H]2O[C@H](CO)[C@@H](O)[C@H](O)[C@H]2O)[C@H]1O | NAD-dependent protein deacetylase sirtuin-1 (SIRT1, Homo sapiens, UniProt Q96EB6) | binding, microscale thermophoresis |  | 150 nM |  | MST normalised fluorescence | 885 a.u.
CNc1ccc([N+](=O)[O-])cc1-n1cnc(-c2cc(F)c(F)cc2F)c1 | Toll-like receptor 1/2 (Homo sapiens, UniProt O60603+Q15399) | reporter gene, agonist | HEK-Blue hTLR2 | concentration not given |  | maximal activation | ≥ 50%
CCCCCCCCCCCCCCCC(=O)Oc1ccc([N+](=O)[O-])cc1 | Aspergillus oryzae GP11 lipase | lipase activity, p-nitrophenol release | Tris-HCl buffer, Triton X-100, gum acacia | 10 min, pH 35, 8.0 °C, added: p-nitrophenyl palmitate |  | Km | 588 µM
Cc1cc2c(cc1N1C(=O)c3cccc4c(Cl)ccc(c34)C1=O)n(C)c(=O)n2C | Protein polybromo-1, bromodomain 6 (PBRM1, Homo sapiens, UniProt Q86U86) | binding, thermal shift |  | 10 µM | higher = stronger binding | thermal shift | -0.7 °C
COc1ccc2c(c1)C(=O)N(CCN1CCN(c3ccccc3OC)CC1)C2 | 5-hydroxytryptamine receptor 5A (HTR5A, Homo sapiens, UniProt P47898) | radioligand binding |  | concentration not given, added: [3H]LSD |  | inhibition | 65.8%
NC(=O)C[C@H](N)C(=O)O | Methyl-accepting chemotaxis protein, ligand-binding domain (Pectobacterium atrosepticum, UniProt Q6D6I9) | binding, thermal shift |  | ligand-binding domain |  | ΔTm | binds

Repeated from above:
Compound | target | assay | test system | conditions | how to read | endpoint | result
CCCCCCCCCCCCCCCC(=O)Oc1ccc([N+](=O)[O-])cc1 | Aspergillus oryzae GP11 lipase | lipase activity, p-nitrophenol release | Tris-HCl buffer, Triton X-100, gum acacia | 10 min, pH 35, 8.0 °C, added: p-nitrophenyl palmitate |  | Km | 588 µM
O=C1NC(=O)/C(=C/c2ccc(OCCNc3nc4c(cnn4C4CCCC4)c(=O)[nH]3)c(F)c2)S1 | High affinity 3',5'-cyclic-AMP phosphodiesterase 7A (PDE7A, Homo sapiens, UniProt Q13946) |  |  |  | reference: PDE7A over PDE9 | selectivity ratio | 25 fold
